{"data": "Assay results gathered from unrelated publications", "target": "Serine/threonine-protein kinase NLK (NLK, Homo sapiens, UniProt Q9UBE8)", "Residues used in one study (Q9UBE8 1-527)": "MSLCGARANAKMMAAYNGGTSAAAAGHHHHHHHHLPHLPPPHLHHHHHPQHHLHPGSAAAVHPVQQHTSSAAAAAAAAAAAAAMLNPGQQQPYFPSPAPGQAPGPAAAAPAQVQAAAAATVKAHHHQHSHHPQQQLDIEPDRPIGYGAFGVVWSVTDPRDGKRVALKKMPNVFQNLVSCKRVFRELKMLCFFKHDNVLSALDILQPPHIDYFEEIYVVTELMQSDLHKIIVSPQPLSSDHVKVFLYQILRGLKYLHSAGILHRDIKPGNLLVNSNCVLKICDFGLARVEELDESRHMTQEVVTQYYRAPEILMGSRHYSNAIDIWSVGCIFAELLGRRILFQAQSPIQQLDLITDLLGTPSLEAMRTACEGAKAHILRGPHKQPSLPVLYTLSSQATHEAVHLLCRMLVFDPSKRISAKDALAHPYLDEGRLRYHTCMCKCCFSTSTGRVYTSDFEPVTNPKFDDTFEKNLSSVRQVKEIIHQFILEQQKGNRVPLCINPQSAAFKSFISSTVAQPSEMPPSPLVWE", "note": "Each line is one published result; not all experiments were run side by side."}
{"assay": "enzyme activity, inhibitor", "conditions": "10 µM", "quantity": "activity vs control", "result": "103%", "SMILES": "O=C(Cc1ccc(OCc2ccccc2)cc1)NC1(C(=O)O)CCN(C(=O)c2ccc(-c3cccc(Cl)c3)cc2)CC1"}
{"assay": "enzyme activity, inhibitor", "conditions": "0.1 µM", "quantity": "inhibition", "result": "18%", "SMILES": "CN1CCN(Cc2ccc(-c3ccc(CO[C@H]4CCC[C@@H]4NC(=O)c4cc(-c5cnn(C)c5)cnc4N)cc3)cc2)CC1"}
{"assay": "inhibitor", "conditions": "1 µM", "how to read": "relative to: control", "quantity": "remaining activity", "result": "100%", "SMILES": "COc1cc(Nc2nc(C)cc(-c3cnn4nc(OC)ccc34)n2)cc(C(F)(F)F)c1"}
{"assay": "binding, competition with immobilised ligand", "conditions": "1 µM", "quantity": "remaining binding", "result": "100%", "SMILES": "Nc1ncc2c(n1)-c1c([nH]c3ccc(C4=CCOCC4)cc13)CCC2"}
{"assay": "kinase activity", "conditions": "0.1 µM, with: ATP at Km", "quantity": "inhibition", "result": "5.7%", "SMILES": "CCn1cc(C(=O)O)c(=O)c2c(N)c(F)c(NC3CCCCC3)cc21"}
{"assay": "enzyme activity", "conditions": "100 nM, human enzyme, with: 10 µM ATP", "how to read": "relative to: untreated", "quantity": "remaining activity", "result": "104%", "SMILES": "O=C=[N][Ru-4]123([n]4c5ccc(O)cc5c5c6c(c7cc(F)c[n+]1c7c54)C(=O)NC6=O)[S+]1CC[S+]2CC[S+]3CC1 (centres unmarked)"}
{"assay": "kinase activity, inhibitor", "conditions": "1 µM", "how to read": "relative to: untreated control", "quantity": "remaining activity", "result": "136%", "SMILES": "COc1c(OCCCN2CCOCC2)ccc2c1N=C(NC(=O)c1cnc(N)nc1)N1CCN=C21"}
{"assay": "enzyme activity, inhibitor", "conditions": "10 µM", "quantity": "inhibition", "result": "-2%", "SMILES": "NC(=O)C[C@H]1CCc2sc3ncnc(O[C@H]4CC[C@H](N5CCOCC5)CC4)c3c21"}
{"assay": "probe labelling, inhibitor, KiNativ chemoproteomics", "test system": "MOLT-4", "conditions": "1 µM", "quantity": "inhibition", "result": "3.62%", "SMILES": "CS(=O)(=O)Nc1cccc(-c2csc3cnc(Nc4ccc(N5CCN(CCCCCOc6cccc7c6C(=O)N(C6CCC(=O)NC6=O)C7=O)CC5)cc4)nc23)c1 (centres unmarked)"}
{"assay": "cell-free assay, competition with immobilised ligand", "conditions": "1 µM", "quantity": "remaining binding", "result": "72%", "SMILES": "Cc1ccc(-c2c(/C=C(\\C#N)C(=O)NC(C)C)n(CCCO)c3ncnc(N)c23)cc1"}
{"assay": "binding", "conditions": "0.1 µM", "quantity": "remaining binding", "result": "100%", "SMILES": "Cc1cnc2nc1Nc1cccc(c1)COC/C=C/COCc1cc(ccc1OCCN1CCOCC1)N2"}
{"assay": "kinase activity, KinaseProfiler", "conditions": "0.03 µM, species human", "how to read": "relative to: control", "quantity": "remaining activity", "result": "106%", "SMILES": "COc1ccc(NC(=O)Nc2ccc3c(c2)C(=O)N(C(C)CO)CC(C)C(CN(C)Cc2ccc4c(c2)OCO4)O3)cc1 (centres unmarked)"}
{"assay": "enzyme activity", "conditions": "1 µM", "how to read": "relative to: DMSO control", "quantity": "remaining activity", "result": "88.9%", "SMILES": "Nc1ncc(-c2cc(-c3cnn(CC(F)(F)F)c3)ncc2F)nc1C(=O)NC1CNCC(F)C1 (centres unmarked)"}
{"assay": "cell-free assay, competition with immobilised ligand", "conditions": "1 µM", "quantity": "remaining binding", "result": "100%", "SMILES": "C=CC(=O)N1CCCC(n2c(=O)c3ncccc3n(Cc3ccc(Oc4ccccc4)cc3)c2=O)C1 (centres unmarked)"}
{"note": "Repeated from above:"}
{"assay": "enzyme activity, inhibitor", "conditions": "10 µM", "quantity": "inhibition", "result": "-2%", "SMILES": "NC(=O)C[C@H]1CCc2sc3ncnc(O[C@H]4CC[C@H](N5CCOCC5)CC4)c3c21"}
{"assay": "probe labelling, inhibitor, KiNativ chemoproteomics", "test system": "MOLT-4", "conditions": "1 µM", "quantity": "inhibition", "result": "3.62%", "SMILES": "CS(=O)(=O)Nc1cccc(-c2csc3cnc(Nc4ccc(N5CCN(CCCCCOc6cccc7c6C(=O)N(C6CCC(=O)NC6=O)C7=O)CC5)cc4)nc23)c1 (centres unmarked)"}
